Measurements of several laboratories.
Every numbered part comes from another study and shows a few of its results, in no order. “And” joins repeats or separate records; there may be more than shown.
Sequence of UniProt P08069 (whole entry, looked up): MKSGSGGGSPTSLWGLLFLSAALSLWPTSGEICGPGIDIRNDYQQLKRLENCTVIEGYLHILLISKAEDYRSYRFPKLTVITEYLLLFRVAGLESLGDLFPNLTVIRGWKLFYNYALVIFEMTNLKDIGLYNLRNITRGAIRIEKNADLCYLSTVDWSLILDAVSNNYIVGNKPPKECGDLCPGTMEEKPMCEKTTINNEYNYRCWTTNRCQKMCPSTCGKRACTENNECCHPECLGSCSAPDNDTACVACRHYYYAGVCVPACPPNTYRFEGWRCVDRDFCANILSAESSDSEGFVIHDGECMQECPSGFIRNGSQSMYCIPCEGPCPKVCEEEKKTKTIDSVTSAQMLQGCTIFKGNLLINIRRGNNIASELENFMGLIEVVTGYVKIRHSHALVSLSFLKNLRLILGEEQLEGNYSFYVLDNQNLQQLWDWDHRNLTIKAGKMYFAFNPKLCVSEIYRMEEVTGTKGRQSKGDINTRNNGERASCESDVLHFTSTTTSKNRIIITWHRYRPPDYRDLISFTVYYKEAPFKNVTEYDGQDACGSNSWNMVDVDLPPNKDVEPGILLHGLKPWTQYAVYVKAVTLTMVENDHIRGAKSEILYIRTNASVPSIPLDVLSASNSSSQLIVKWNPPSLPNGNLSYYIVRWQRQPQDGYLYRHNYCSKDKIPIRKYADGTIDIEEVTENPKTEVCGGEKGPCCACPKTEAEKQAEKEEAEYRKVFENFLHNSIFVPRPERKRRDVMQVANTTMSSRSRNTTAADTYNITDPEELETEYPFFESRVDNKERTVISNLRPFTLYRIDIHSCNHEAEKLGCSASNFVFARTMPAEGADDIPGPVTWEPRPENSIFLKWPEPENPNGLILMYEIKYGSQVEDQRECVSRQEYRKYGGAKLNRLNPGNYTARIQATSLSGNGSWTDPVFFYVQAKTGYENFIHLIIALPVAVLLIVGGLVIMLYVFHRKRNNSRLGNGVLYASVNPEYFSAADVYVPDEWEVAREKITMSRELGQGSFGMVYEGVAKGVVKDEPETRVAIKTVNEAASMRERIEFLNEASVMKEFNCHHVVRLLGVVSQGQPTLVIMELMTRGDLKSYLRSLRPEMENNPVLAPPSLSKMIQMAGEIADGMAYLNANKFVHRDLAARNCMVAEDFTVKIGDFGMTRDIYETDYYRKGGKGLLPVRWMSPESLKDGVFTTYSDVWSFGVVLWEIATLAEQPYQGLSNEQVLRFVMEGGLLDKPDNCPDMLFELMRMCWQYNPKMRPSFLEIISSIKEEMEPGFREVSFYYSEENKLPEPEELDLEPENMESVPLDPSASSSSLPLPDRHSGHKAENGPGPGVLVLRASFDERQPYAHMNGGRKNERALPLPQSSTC
Sequence of UniProt O14733 (whole entry, looked up): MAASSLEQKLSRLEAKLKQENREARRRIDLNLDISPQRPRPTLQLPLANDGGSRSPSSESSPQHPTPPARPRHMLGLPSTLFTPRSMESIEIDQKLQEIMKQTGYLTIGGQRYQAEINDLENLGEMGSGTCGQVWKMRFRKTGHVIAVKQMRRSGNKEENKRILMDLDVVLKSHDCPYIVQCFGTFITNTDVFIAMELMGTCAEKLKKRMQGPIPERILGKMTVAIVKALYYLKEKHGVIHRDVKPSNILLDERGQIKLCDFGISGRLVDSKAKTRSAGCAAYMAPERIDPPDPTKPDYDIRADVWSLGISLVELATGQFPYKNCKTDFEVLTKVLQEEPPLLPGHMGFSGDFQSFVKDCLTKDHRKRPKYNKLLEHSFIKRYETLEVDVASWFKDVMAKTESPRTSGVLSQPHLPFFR
Sequence of UniProt Q13237 (whole entry, looked up): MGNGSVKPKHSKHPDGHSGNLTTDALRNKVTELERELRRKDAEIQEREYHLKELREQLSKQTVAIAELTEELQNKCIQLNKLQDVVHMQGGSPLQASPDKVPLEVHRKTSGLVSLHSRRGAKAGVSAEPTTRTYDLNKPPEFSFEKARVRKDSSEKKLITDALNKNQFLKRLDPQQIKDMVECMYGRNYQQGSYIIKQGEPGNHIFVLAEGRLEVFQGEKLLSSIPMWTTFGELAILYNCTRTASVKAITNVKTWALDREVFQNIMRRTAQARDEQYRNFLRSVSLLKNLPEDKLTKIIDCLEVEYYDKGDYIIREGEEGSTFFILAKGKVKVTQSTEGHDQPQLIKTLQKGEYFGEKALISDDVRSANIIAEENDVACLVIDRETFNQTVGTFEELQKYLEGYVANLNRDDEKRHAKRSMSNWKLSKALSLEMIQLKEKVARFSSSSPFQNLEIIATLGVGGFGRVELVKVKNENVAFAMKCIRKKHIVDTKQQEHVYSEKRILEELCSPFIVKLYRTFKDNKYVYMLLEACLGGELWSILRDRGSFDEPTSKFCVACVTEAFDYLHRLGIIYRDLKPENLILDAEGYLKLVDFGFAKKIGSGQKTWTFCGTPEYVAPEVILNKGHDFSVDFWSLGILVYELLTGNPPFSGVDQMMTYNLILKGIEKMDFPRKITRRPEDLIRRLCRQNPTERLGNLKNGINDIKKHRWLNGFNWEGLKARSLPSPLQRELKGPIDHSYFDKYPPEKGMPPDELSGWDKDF
Sequence of UniProt Q9P286 (whole entry, looked up): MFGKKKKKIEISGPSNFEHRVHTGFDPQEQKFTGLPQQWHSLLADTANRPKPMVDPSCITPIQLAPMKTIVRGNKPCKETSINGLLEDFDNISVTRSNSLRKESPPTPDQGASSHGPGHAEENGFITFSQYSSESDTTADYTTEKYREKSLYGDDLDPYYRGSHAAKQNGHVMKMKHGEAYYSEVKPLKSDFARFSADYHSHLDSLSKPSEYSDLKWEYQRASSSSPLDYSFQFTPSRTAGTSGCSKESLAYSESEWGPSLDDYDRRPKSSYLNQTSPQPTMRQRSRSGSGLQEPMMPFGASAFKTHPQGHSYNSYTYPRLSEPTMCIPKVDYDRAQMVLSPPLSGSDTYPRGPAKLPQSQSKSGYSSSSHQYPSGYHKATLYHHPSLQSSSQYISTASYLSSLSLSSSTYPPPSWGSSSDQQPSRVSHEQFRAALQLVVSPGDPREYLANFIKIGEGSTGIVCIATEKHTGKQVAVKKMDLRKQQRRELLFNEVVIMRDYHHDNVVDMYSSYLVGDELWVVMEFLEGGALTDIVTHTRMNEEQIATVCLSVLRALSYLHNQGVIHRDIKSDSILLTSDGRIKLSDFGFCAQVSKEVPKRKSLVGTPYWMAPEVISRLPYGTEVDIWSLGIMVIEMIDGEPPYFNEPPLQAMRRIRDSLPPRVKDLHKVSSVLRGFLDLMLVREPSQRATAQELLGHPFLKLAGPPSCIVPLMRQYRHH
Sequence of UniProt Q06418 (whole entry, looked up): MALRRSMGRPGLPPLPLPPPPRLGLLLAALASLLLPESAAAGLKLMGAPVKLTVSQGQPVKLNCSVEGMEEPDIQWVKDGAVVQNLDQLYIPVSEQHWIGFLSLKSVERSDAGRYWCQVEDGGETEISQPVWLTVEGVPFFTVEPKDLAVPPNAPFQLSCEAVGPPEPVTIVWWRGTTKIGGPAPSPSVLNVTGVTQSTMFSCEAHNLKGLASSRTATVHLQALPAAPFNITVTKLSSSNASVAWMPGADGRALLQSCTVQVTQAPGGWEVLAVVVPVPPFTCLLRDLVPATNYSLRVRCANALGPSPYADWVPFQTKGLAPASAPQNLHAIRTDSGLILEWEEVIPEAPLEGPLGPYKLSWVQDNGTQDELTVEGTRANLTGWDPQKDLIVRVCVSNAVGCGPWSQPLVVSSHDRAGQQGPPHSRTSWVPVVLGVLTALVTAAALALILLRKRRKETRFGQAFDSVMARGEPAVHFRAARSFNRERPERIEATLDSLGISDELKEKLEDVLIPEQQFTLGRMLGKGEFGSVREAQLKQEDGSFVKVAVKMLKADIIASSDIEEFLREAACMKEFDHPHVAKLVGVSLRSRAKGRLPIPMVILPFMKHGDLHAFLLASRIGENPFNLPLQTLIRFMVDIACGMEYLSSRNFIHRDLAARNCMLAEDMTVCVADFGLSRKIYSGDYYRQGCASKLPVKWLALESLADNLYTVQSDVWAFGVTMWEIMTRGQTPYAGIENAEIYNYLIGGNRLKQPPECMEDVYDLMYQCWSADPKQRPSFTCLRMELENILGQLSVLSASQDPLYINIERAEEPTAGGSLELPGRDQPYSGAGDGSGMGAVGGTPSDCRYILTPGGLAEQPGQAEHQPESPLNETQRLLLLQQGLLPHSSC
Sequence of UniProt P36894 (whole entry, looked up): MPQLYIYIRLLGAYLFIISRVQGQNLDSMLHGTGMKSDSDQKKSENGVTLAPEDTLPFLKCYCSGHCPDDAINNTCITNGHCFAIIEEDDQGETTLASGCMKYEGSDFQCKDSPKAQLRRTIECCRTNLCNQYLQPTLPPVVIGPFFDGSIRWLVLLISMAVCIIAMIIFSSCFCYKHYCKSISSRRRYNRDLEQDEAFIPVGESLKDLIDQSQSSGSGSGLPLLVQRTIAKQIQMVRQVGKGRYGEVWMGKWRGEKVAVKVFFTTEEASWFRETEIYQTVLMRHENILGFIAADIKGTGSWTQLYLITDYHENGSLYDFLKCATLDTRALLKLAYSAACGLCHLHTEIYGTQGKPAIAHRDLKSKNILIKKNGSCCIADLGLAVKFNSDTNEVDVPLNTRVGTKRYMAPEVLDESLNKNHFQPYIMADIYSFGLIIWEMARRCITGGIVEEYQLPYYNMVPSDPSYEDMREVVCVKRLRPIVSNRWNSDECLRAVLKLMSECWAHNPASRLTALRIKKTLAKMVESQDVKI
Sequence of UniProt Q00535 (whole entry, looked up): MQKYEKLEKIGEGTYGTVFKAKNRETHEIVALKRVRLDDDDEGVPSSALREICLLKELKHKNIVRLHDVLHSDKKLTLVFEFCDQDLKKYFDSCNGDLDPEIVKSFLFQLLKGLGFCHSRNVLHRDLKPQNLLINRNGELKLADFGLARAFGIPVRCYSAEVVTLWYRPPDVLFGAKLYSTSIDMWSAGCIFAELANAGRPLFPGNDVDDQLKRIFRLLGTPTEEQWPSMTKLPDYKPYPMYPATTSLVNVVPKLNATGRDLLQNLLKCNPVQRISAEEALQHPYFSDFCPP

Study 1 — read-out: binding; concentration: 1 µM
SMILES: Cc1ccc(NC(=O)c2ccnc(C(F)(F)F)c2)cc1-c1cc(OCCO)nc(N2CCOCC2)c1
The remaining binding was 86% (cGMP-dependent protein kinase 2 (PRKG2, Homo sapiens, UniProt Q13237)).
The remaining binding was 68% (Receptor-type tyrosine-protein kinase FLT3 (FLT3, Homo sapiens, UniProt P36888, D835H)).
For Dual specificity mitogen-activated protein kinase kinase 2 (MAP2K2, Homo sapiens, UniProt P36507); competition with immobilised ligand: remaining binding read 89%.
The remaining binding was 100% (Dual specificity mitogen-activated protein kinase kinase 7 (MAP2K7, Homo sapiens, UniProt O14733)).
Ephrin type-A receptor 7 (EPHA7, Homo sapiens, UniProt Q15375); competition with immobilised ligand — remaining binding: 99%.
Casein kinase II subunit alpha' (CSNK2A2, Homo sapiens, UniProt P19784) — remaining binding: 71%.
It gave 96% for remaining binding (Mitogen-activated protein kinase kinase kinase 7 (MAP3K7, Homo sapiens, UniProt O43318); competition with immobilised ligand).
It gave 70% for remaining binding (Mast/stem cell growth factor receptor Kit (KIT, Homo sapiens, UniProt P10721, D816V)).

Study 2 — species: C57BL/6 CES1-/- mice, EL4 tumour; route: subcutaneous; dose: 0.3 mg/kg/day DON equivalent; time: 5 days
SMILES: CC(=O)N[C@@H](Cc1c[nH]c2ccccc12)C(=O)N[C@@H](CCC(=O)C=[N+]=[N-])C(=O)OC(C)C
The “metabolite peak intensity” was 803000 a.u. and 681000 a.u. and 861000 a.u. and 2.54e+06 a.u. and 1.63e+06 a.u. and 3.7e+06 a.u. (UPLC-MS/MS metabolomics, refers to: gamma-tocotrienol; EL4 tumour; normalised to tissue mass).
It gave 662000 a.u. and 367000 a.u. and 460000 a.u. and 246000 a.u. and 470000 a.u. and 641000 a.u. for “metabolite peak intensity” (UPLC-MS/MS metabolomics, refers to: guanosine 3'-monophosphate; EL4 tumour; normalised to tissue mass).
LC-MS/MS metabolomics, refers to: proline; EL4 tumour; higher = more metabolite — “metabolite peak intensity”: 3.79e+09 a.u. and 3.06e+09 a.u. and 3.75e+09 a.u. and 4.29e+09 a.u. and 3.58e+09 a.u. and 4.53e+09 a.u.
UPLC-MS/MS metabolomics, refers to: N-methylproline; EL4 tumour; normalised to tissue mass; higher = more metabolite — “metabolite peak intensity”: 1.34e+06 a.u. and 794000 a.u. and 1.42e+06 a.u. and 1.65e+06 a.u. and 2.51e+06 a.u. and 936000 a.u.
UPLC-MS/MS metabolomics, refers to: reduced glutathione (GSH); EL4 tumour; normalised to tissue mass — “metabolite peak intensity”: 4.66e+06 a.u. and 1.07e+07 a.u. and 685000 a.u. and 5.41e+06 a.u. and 529000 a.u. and 5.61e+06 a.u.
For UPLC-MS/MS, refers to: homoserine; EL4, tumour; normalised to tissue mass; higher = more metabolite: “metabolite peak intensity” read 6.55e+06 a.u. and 6.56e+06 a.u. and 1.18e+07 a.u. and 6.72e+06 a.u. and 2e+06 a.u. and 1.1e+07 a.u.

Study 3 — technique: competition with immobilised ligand; concentration: 1 µM
Structure (SMILES): CN(C)C(=O)Cn1cc(-c2nc([C@@](C)(c3ccc(-c4cnc(N)nc4)cc3)C3CC3)no2)cn1
Phosphatidylinositol 4,5-bisphosphate 3-kinase catalytic subunit alpha isoform (PIK3CA, Homo sapiens, UniProt P42336, E545K); cell-free assay — remaining binding: 81%.
Bone morphogenetic protein receptor type-1A (BMPR1A, Homo sapiens, UniProt P36894); binding — remaining binding: 100%.
The remaining binding was 100% (Cyclin-dependent kinase 5 (CDK5, Homo sapiens, UniProt Q00535); cell-free assay).
For Mitogen-activated protein kinase 6 (MAPK6, Homo sapiens, UniProt Q16659); cell-free assay: remaining binding read 91%.
The remaining binding was 100% (Serine/threonine-protein kinase pim-1 (PIM1, Homo sapiens, UniProt P11309); cell-free assay).
For Receptor-type tyrosine-protein kinase FLT3 (FLT3, Homo sapiens, UniProt P36888, R834Q); cell-free assay: remaining binding read 87%.
Insulin-like growth factor 1 receptor (IGF1R, Homo sapiens, UniProt P08069); cell-free assay — remaining binding: 100%.
Vascular endothelial growth factor receptor 3 (FLT4, Homo sapiens, UniProt P35916); cell-free assay — remaining binding: 88%.
The remaining binding was 85% (SRSF protein kinase 3 (SRPK3, Homo sapiens, UniProt Q9UPE1); cell-free assay).
The remaining binding was 86% (Tyrosine-protein kinase ABL1, non-phosphorylated (ABL1, Homo sapiens, UniProt P00519, T315I); cell-free assay).
The remaining binding was 33% (Tyrosine-protein kinase JAK1, JH2 (JAK1, Homo sapiens, UniProt P23458); cell-free assay).
Serine/threonine-protein kinase PAK 5 (PAK5, Homo sapiens, UniProt Q9P286); cell-free assay — remaining binding: 100%.
Membrane-associated tyrosine- and threonine-specific cdc2-inhibitory kinase (PKMYT1, Homo sapiens, UniProt Q99640); cell-free assay — remaining binding: 88%.
Epidermal growth factor receptor (EGFR, Homo sapiens, UniProt P00533, G719C); cell-free assay — remaining binding: 85%.
For Receptor-interacting serine/threonine-protein kinase 2 (RIPK2, Homo sapiens, UniProt O43353); cell-free assay: remaining binding read 87%.
For Angiopoietin-1 receptor (TEK, Homo sapiens, UniProt Q02763); cell-free assay: remaining binding read 100%.
The remaining binding was 88% (Serine/threonine-protein kinase 17B (STK17B, Homo sapiens, UniProt O94768); cell-free assay).
For Phosphatidylinositol 4,5-bisphosphate 3-kinase catalytic subunit beta isoform (PIK3CB, Homo sapiens, UniProt P42338); cell-free assay: remaining binding read 100%.
The remaining binding was 100% (Casein kinase I isoform gamma-1 (CSNK1G1, Homo sapiens, UniProt Q9HCP0); cell-free assay).
The remaining binding was 89% (Serine/threonine-protein kinase B-raf (BRAF, Homo sapiens, UniProt P15056, V600E); cell-free assay).
It gave 100% for remaining binding (cAMP-dependent protein kinase catalytic subunit beta (PRKACB, Homo sapiens, UniProt P22694); cell-free assay).
For Tyrosine-protein kinase receptor TYRO3 (TYRO3, Homo sapiens, UniProt Q06418); cell-free assay: remaining binding read 100%.
The remaining binding was 83% (Receptor-type tyrosine-protein kinase FLT3 (FLT3, Homo sapiens, UniProt P36888, N841I); cell-free assay).
Mitogen-activated protein kinase 3 (MAPK3, Homo sapiens, UniProt P27361); cell-free assay — remaining binding: 100%.
It gave 97% for remaining binding (Proto-oncogene tyrosine-protein kinase receptor Ret (RET, Homo sapiens, UniProt P07949, V804M); cell-free assay).

Study 4 — read-out: binding; mode: competitor; technique: NanoBRET; cells: HEK293
SMILES: CCC(=O)N1CCN(c2nc(OC[C@@H]3CCCN3C)nc3c2CCN(c2cccc4cccc(Cl)c24)C3)C[C@@H]1CC#N
KRAS Q61R: GTPase KRas (KRAS, Homo sapiens, UniProt P01116, Q61R)
KRAS Q61L: GTPase KRas (KRAS, Homo sapiens, UniProt P01116, Q61L)
For KRAS Q61R; 1.69 nM: normalized BRET read 104% and 109% and 103%.
For KRAS Q61L; 137 nM: normalized BRET read 90.1% and 103% and 91.1%.
The normalized BRET was 39.6% and 40.9% and 43.4% (KRAS Q61L; 3.7 µM).
The normalized BRET was 103% and 104% and 100% (KRAS Q61L; 1.69 nM).
The normalized BRET was 110% and 91.2% and 111% (KRAS Q61R; 11.1 µM).

Study 5 — cell line: mouse MPNST tumor cells; technique: high-content nuclear imaging; refers to: cell number; concentration: 10 µM; time: 12 h; setting: mean of 2 replicates; baseline: plate mean; direction: higher = more cells
With `CC(C)Cn1cnc2c(N)nc3ccccc3c21` the nuclei count was -0.505 z-score.
For `CC(C)(C)C(=O)OCC(=O)[C@H]1CC[C@H]2[C@@H]3CCC4=CC(=O)CC[C@]4(C)[C@H]3CC[C@]12C`, the nuclei count was 0.38 z-score.
The nuclei count of `c1ccc(-c2n[nH]c3c2oc2ccccc23)cc1` is reported as -1.31 z-score.
`CN(C)C/C=C(/c1ccc(Br)cc1)c1cccnc1` has a nuclei count of 1.99 z-score.
With `Cc1ccc(O)c(NC(=O)CCc2ccccc2)c1` the nuclei count was -2.15 z-score.
`O=C(NC1CC1)c1cc(-c2cccs2)on1` gave a nuclei count of 3.82 z-score.
With `COc1ccc2c(-c3ccc(O)c(C)c3)ccnc2c1` the nuclei count was 1.92 z-score.
`NCC(=O)Nc1ccc(-n2nc(C(F)(F)F)cc2-c2ccc3c(ccc4ccccc43)c2)cc1` has a nuclei count of -6.32 z-score.
`CNC(=O)c1cccc(NC(=O)N2CCC(Oc3ccccc3Cl)CC2)c1` has a nuclei count of 0.733 z-score.
For `N[C@@H](CC(=O)Nc1ccc(Oc2cc(F)c(F)cc2Br)cc1)C(=O)O`, the nuclei count was 1.21 z-score.
For `CCn1cc(C(=O)O)c(=O)c2cc(F)c(N3CCNCC3)cc21`, the nuclei count was 1.52 z-score.

For quick reference, copied from above (study 2):
The “metabolite peak intensity” was 803000 a.u. and 681000 a.u. and 861000 a.u. and 2.54e+06 a.u. and 1.63e+06 a.u. and 3.7e+06 a.u. (UPLC-MS/MS metabolomics, refers to: gamma-tocotrienol; EL4 tumour; normalised to tissue mass).
It gave 662000 a.u. and 367000 a.u. and 460000 a.u. and 246000 a.u. and 470000 a.u. and 641000 a.u. for “metabolite peak intensity” (UPLC-MS/MS metabolomics, refers to: guanosine 3'-monophosphate; EL4 tumour; normalised to tissue mass).
LC-MS/MS metabolomics, refers to: proline; EL4 tumour; higher = more metabolite — “metabolite peak intensity”: 3.79e+09 a.u. and 3.06e+09 a.u. and 3.75e+09 a.u. and 4.29e+09 a.u. and 3.58e+09 a.u. and 4.53e+09 a.u.
UPLC-MS/MS metabolomics, refers to: N-methylproline; EL4 tumour; normalised to tissue mass; higher = more metabolite — “metabolite peak intensity”: 1.34e+06 a.u. and 794000 a.u. and 1.42e+06 a.u. and 1.65e+06 a.u. and 2.51e+06 a.u. and 936000 a.u.
